{"data": "Experimental data from different studies", "note": "Protocols differ between the studies behind these lines. ± marks the error that the study gave."}
{"SMILES": "COC(=O)C1=CO[C@@H](OC(C)=O)[C@@H]2C(Cn3cc(-c4ccc(OC)cc4)nn3)=CC[C@H]12", "cell line": "SK-N-SH", "test": "neuroprotection, MTT", "setting": "0.6 µM, 24 h, with: 250 µM H2O2", "quantity": "viability", "value": "54.2 ± 0.8%"}
{"SMILES": "FC(F)(F)c1ccc(Nc2c3c(nc4ccccc24)CCCC3)cc1", "cell line": "SH-SY5Y", "test": "MTT", "setting": "50 µM, 1 h pretreatment, 10% FBS, with: H2O2", "quantity": "viability", "value": "47.6%"}
{"SMILES": "CCOP(=O)(OCC)OCCCCOC(=O)CC1=C(C)C(=Cc2ccc([S+](C)[O-])cc2)c2ccc(F)cc21 (centres unmarked)", "cell line": "A549 ρ0 (mitochondria-less)", "test": "trypan blue exclusion", "setting": "24 h", "scale": "relative to: parental A549 cells", "quantity": "IC50 increase", "value": "2 fold"}
{"SMILES": "CCCc1cc(OC)c(OC)c(OC)c1OC", "cell line": "SK-OV-3", "test": "cell growth or viability, MTT", "setting": "72 h", "quantity": "GI50", "value": "> 250 µM"}
{"SMILES": "COC(=O)C1=CO[C@@H](OC(C)=O)[C@@H]2C(Cn3cc(CCBr)nn3)=CC[C@H]12", "cell line": "SK-N-SH", "test": "neuroprotection, MTT", "setting": "0.15 µM, 24 h, with: 250 µM H2O2", "quantity": "viability", "value": "74.8 ± 0.6%"}
{"SMILES": "CSCC[C@H](NC(=O)[C@H](CC(C)C)NC(=O)[C@H](Cc1c[nH]cn1)NC(=O)CNC(=O)[C@@H](NC(=O)[C@H](C)NC(=O)[C@H](Cc1c[nH]c2ccccc12)NC(=O)[C@H](CCC(N)=O)NC(=O)CCCCCCCNC(=O)[C@@H](CO)NC(=O)[C@@H](CO)NC(=O)[C@@H](CCCCNC(=O)Cn1ccnc1[N+](=O)[O-])NC(=O)CN1CCN(CC(=O)O)CCN(CC(=O)O)CCN(CC(=O)O)CC1)C(C)C)C(N)=O [indium-111 labelled]", "cell line": "PC-3", "setting": "8 h", "scale": "relative to: hypoxic over normoxic", "quantity": "hypoxia enhancement factor", "value": "1.95 ± 0.28"}
{"SMILES": "Cc1cc(C)c(-n2ccn(-c3c(C)cc(C)cc3C)c2=[Se])c(C)c1.[Cl][Ag]", "cell line": "LoVo MDR", "test": "MTT", "scale": "relative to: LoVo MDR over LoVo", "quantity": "resistance factor", "value": 0.9}
{"SMILES": "COC(=O)C1=CO[C@@H](O)[C@@H]2C(Cn3cc(CN4C(=O)c5ccccc5C4=O)nn3)=CC[C@H]12", "cell line": "SK-N-SH", "test": "neuroprotection, MTT", "setting": "0.6 µM, 24 h, with: 250 µM H2O2", "quantity": "viability", "value": "72.2 ± 0.9%"}
{"SMILES": "CC[C@H]1CN2CCc3cc(OC)c(OC)cc3[C@@H]2C[C@@H]1C[C@@H]1c2cc(OC)c(OC)cc2CCN1C(=O)OCc1ccc(NC(=O)[C@@H]2CCCN2C(=O)[C@H](C)NC(=O)[C@H](CCC(N)=O)NC(=O)[C@H](CC(C)C)NC(=O)[C@H](CCCCN)NC(=O)[C@H](CO)NC(=O)[C@H](CO)NC(=O)[C@H](Cc2c[nH]cn2)NC(C)=O)cc1", "cell line": "LNCaP", "test": "cell viability, MTT", "scale": "relative to: compound over emetine", "quantity": "IC50 ratio", "value": "~24 fold"}
{"SMILES": "COC1CC(OC2CCC3(C)C(CCC45OC46CCC(C(C)=O)C6(C)C(OC(C)=O)C(OC(=O)c4ccccc4)C35)C2)OC(C)C1OC1OC(C)C(O)C(OC)C1O (centres unmarked)", "cell line": "MDA435/LCC6-MDR1", "test": "cell growth, MDR reversal, SRB", "setting": "10 µM, with: doxorubicin", "scale": "relative to: doxorubicin alone over combination", "quantity": "fold reversal of IC50", "value": 14}
{"SMILES": "C[C@H]1O[C@@H]2C3=C(O[C@]2(C)[C@@]1(O)C=O)C(=O)c1c(O)cccc1C3=O", "cell line": "MDA-MB-231 and HFF", "test": "MTT", "scale": "relative to: CC50 HFF over EC50 MDA-MB-231", "quantity": "selectivity index", "value": 2.93}
{"SMILES": "COc1ccc(CCNc2c(NC3CCN(Cc4ccccc4)CC3)c(=O)c2=O)cc1OC", "cell line": "SH-SY5Y", "test": "neuroprotection, MTT", "setting": "12.5 µM, 24 h pretreatment, with: H2O2 650 µM for 4 h", "quantity": "cell survival", "value": "57.9%"}
{"SMILES": "COC(=O)C1=CO[C@@H](OC(C)=O)[C@@H]2C(Cn3cc(C4(O)CCCCC4)nn3)=CC[C@H]12", "cell line": "SK-N-SH", "test": "neuroprotection, MTT", "setting": "0.3 µM, 24 h, with: 250 µM H2O2", "quantity": "viability", "value": "63.3 ± 1%"}
{"SMILES": "CC(C)CC(O)(CC(C)C)c1cn(C(=O)N2CCCC2)nn1", "cell line": "mouse T-cells", "test": "N-terminal labeled proteins, N-terminal enrichment proteomics, item: CCDC97", "setting": "1 nM, 6 h", "scale": "relative to: DMSO", "quantity": "SILAC ratio", "value": "4.78 ± 0.22"}
{"note": "Excerpt of the above:"}
{"SMILES": "CSCC[C@H](NC(=O)[C@H](CC(C)C)NC(=O)[C@H](Cc1c[nH]cn1)NC(=O)CNC(=O)[C@@H](NC(=O)[C@H](C)NC(=O)[C@H](Cc1c[nH]c2ccccc12)NC(=O)[C@H](CCC(N)=O)NC(=O)CCCCCCCNC(=O)[C@@H](CO)NC(=O)[C@@H](CO)NC(=O)[C@@H](CCCCNC(=O)Cn1ccnc1[N+](=O)[O-])NC(=O)CN1CCN(CC(=O)O)CCN(CC(=O)O)CCN(CC(=O)O)CC1)C(C)C)C(N)=O [indium-111 labelled]", "cell line": "PC-3", "setting": "8 h", "scale": "relative to: hypoxic over normoxic", "quantity": "hypoxia enhancement factor", "value": "1.95 ± 0.28"}
{"SMILES": "COC(=O)C1=CO[C@@H](OC(C)=O)[C@@H]2C(Cn3cc(C4(O)CCCCC4)nn3)=CC[C@H]12", "cell line": "SK-N-SH", "test": "neuroprotection, MTT", "setting": "0.3 µM, 24 h, with: 250 µM H2O2", "quantity": "viability", "value": "63.3 ± 1%"}
